Published values collected from several papers.
Each numbered part is a random draw from the data of one study; scales do not carry over between parts.

Set 1
Target: Histone acetyltransferase KAT6A, winged helix 1, GST fusion (KAT6A, Homo sapiens, UniProt Q92794, residues 1-85)
Method: protein binding microarray
Form: double-stranded DNA, one strand shown
Sample: in vitro
Concentration: not given
Setting: 8-mer, flanks averaged, mean of 2 arrays, mostly near background
Baseline: not given
Reading: higher = stronger binding
Residues (chain): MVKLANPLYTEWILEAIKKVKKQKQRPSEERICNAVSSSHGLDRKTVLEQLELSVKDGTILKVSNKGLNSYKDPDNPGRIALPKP
| Sequence | E-score |
| --- | --- |
| AACACAGA | -0.186 |
| AACGTTTC | -0.23 |
| CTTTGGCC | 0.0197 |
| ATGCCCCA | -0.23 |
| ATCAACCC | 0.0755 |
| CATAAATA | -0.149 |
| AGGGGCCC | -0.0644 |
| CAGACCAC | -0.182 |
| ACACCGTC | 0.246 |
| CCGCCTCC | 0.257 |
| CTACCAAC | -0.125 |
| TGCTTCCA | -0.264 |
| CACGTTCA | -0.0497 |
| TTAATAAA | -0.0268 |
| AGGATACC | -0.00558 |
| GGTGTCCA | -0.147 |
| CAACACAG | -0.189 |
| TTGTAAAA | -0.233 |
| ATCCAGTC | -0.0875 |
| TCTGAAGA | -0.0466 |
| ACTTGAAA | -0.259 |
| CACAGTGA | -0.196 |
| CGGTACAA | 0.214 |

Set 2
Target: Interferon regulatory factor 7, full length, phosphomimetic (IRF7, Homo sapiens, UniProt Q92985, residues 1-503, S471D/S472D/S475D/S476D/S477D/S483D/S484D/S487D)
Chain of UniProt Q92985 (whole entry, unmodified, looked up): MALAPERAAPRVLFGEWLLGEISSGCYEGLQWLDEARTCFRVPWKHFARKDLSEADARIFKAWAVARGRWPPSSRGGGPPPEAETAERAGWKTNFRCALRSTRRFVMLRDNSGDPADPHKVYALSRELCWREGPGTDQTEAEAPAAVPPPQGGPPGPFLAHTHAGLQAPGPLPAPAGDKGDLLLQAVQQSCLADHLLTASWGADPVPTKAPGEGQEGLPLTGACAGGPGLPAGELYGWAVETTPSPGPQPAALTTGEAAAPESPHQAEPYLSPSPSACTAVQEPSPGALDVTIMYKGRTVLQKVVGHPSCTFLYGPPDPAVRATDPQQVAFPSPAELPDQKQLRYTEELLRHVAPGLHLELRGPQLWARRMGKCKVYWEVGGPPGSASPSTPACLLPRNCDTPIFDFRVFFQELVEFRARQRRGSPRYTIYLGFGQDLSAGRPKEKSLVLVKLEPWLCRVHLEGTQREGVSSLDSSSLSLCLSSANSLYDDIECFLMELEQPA
Method: protein-binding microarray
Form: double-stranded DNA, one strand shown
Sample: in vitro
Concentration: 2200 nM top
Setting: 60-bp whole probe
Added: salmon DNA 0.4 mg/ml
Baseline: random background probes
Reading: higher = stronger binding
Shared flanks, not repeated: GCCTAGCAC … GTCTTGATTCGCTTGACGCTGCTG
| Sequence | fitted relative affinity [z-score] |
| --- | --- |
| TTAGATTTCAGCTCCGATTAGTGCTAG | 0.45 |
| TTAAGACTGGGGTATCGGTTAGTGCTA | -0.206 |
| AGATTCCTCTCACCTCGGCCTGTGCTA | 1.42 |
| TCTAACTTCCCAATGGTCTTGTGCTAG | 1.16 |
| GACGAACTGAGTTTCGAGGCGTGCTAG | 1.42 |
| GACGGTTTCGGTTATCGGGACGTGCTA | 7.52 |
| GTCGGTATCCTTTTCCTGACGTGCTAG | 2.13 |
| GACCGTCTCGGTCTCGGGACGTGCTAG | -0.0794 |
| TTAGGACTGCTTCTCCTCTAGTGCTAG | 0.679 |
| TTCACTATTGCTTCCTCTTTGTGCTAG | 2.76 |
| GACGAGCTGAGACTGGAGACGTGCTAG | -0.65 |
| TTAGGTATCATACTGCTTTAGTGCTAG | 0.598 |
| TGCTCCTTCTGACATCAACCCGTGCTA | 1.4 |
| GACGACCTCAGTTTCGAGACGTGCTAG | 3.36 |
| TGAGGACTGGACACTGGGTTAGTGCTA | -1.04 |
| GACGGAATGGGGTTTCGGGACGTGCTA | 1.13 |
| TCATCATTGTTTTTCATACTGTGCTAG | 1.73 |
| TGGGGCTGTATCATCTGAAGGTGCTAG | -0.752 |
| GACGATCTCAGACAGGAGACGTGCTAG | -0.106 |
| TCATGTTTCCTCTTTCTACTGTGCTAG | 3.77 |
| TTAGGACTGCTTATCTTTTAGTGCTAG | -0.00751 |
| AGATGTGTCTTAAATAGGGCAGTGCTA | -0.491 |
| TCATCTTTCTGTTTTCTACTGTGCTAG | 5.43 |
| TTAGGACTGCTTCTCCTTTCGTGCTAG | 1.39 |

Set 3
Target: RNA binding protein fox-1 homolog 2, RRM domain, GST-SBP tag (RBFOX2, Homo sapiens, UniProt O43251-10, residues 100-194)
Method: RNA Bind-n-Seq
Form: RNA
Sample: in vitro
Concentration: 365 nM
Setting: natural RNA segment, single round, ends assumed
Baseline: no-protein control
Reading: higher = stronger binding
Shared flanks, not repeated: GGGAGUUCUACAGUCCGACGAUC … UGGAAUUCUCGGGUGCCAA
Target sequence (chain): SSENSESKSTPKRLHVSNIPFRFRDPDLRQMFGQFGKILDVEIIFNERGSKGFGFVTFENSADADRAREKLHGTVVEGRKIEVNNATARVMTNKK
| Sequence | RBNS enrichment (R) |
| --- | --- |
| UUUUCCCUUACAGUUCCUGCUUGGUCCCACCCACUGAAGUAGCUCAUCGUAGUGCGGGCCGUAUUAGAGGCAGUGGGGUACGUUAGACUCAGAUGGAAAAGUAUUCUAGG | 0.39 |
| UUGGGUGUCCUCAACAGUGAAUUCACUGUCUGCGUGCAGUUAUUACAUGCAUUUGUGCAUUUCUACUACAAUGGCAUCUUUAUGUCUCUGUAACAUUGGCCUUUUCAUGG | 0.363 |
| GCCCCUUGCCUAAAAGCCUGUACCUCUGGAUUGGCGGAAGUAAAUCUGGAAGGAUUCUCACUCGUAUUUCCCACCCCUAGUGGCCAGAGGAGGGAGGGGCACAGUGAAGA | 0.71 |
| UCAGUGCAGUUACAGACAUGCGUUUGAUUCCACAGUUUUGUUUCAUUUCAAAAGAAUUCCCCUCACAGGAGGAUGGCUGAGCAUCAAAGGAGGACAACCAUCUAUAACUU | 0.389 |
| AUCCCUAAAGAUACUUCCAACAUAUUGUUAGAGUAAGUAUUAAAAGAAAAAGUAGGUUUGCUGAAAAACAUUACUAAAUGACUUGGAGCUCUCCAGUCAAAGAAACAAAG | 0.477 |
| AGAAGUUGAAGCUCUUUAAGCCAUUUUAUUUAUUUUGUUUUUUACAGAAUUUGUGCUUUGGUUUGCCCUGCGCAGCCUUGGAGCAUCAUAAGCCUGGCUGGUGGGCAUAG | 0.38 |
| UGCCCCAGCGGCCCUGGCCCCAGGCUCUAUUAACCUAAAAUGUAGCUCCCUAGCGCUAACCUAGGAACCGCCGCUGCCUGCUGGGGGGCCACGCCCCUCAUGCCCUUGUC | 0.328 |
| GCUGUGAUAAAUUUCAAAUUUGCAUAGCUUUUCAAUGUUUUGCUCUGCUCCCGCUCUUGCUUCAGAGUCGGCACACUCACCUGCAUUUGAGUUCUGUCUAUAGCCCAGCA | 1.86 |
| UUGGUUCCAGUGUCAGAAGCAAGCACAGUUAUUGCUGUGUCUUCAGCUCACAGAGCCGCGUCCCUCGAAGCCGUGAGCUACGCCAUUGAUUCUUUAAAAGCCAAGGUGCC | 0.257 |
| UUUACAUUUGGAUUAGAAAUUUAACAUAGUAAUUCUUAAGUCUUUUGUCUGAUUUUUAAAGUACUUUCUUAUAAAUUUGGAUCAUGUUAUGAUUUGUAACAUUCACACAA | 0.559 |
| GUGUGUGGCACCUGUGAUGGCAGGGCUGUGAGCUGGGCUUCUGUCCUCCUCUGUGUCCCGGCAUGGAAGCCAGUAUAAGCAUUUCCAAAUGAGGGAAAAGUCCUUGGCUC | 0.941 |
| GGGCCGAGGAGGGCGGCUGCUCUGUCAUGAGAAUGUACGGCCCGUGGAUGAUUAACGGGCCUUUUUCACUUAGAAGCUGCACAUUAUGGAGCAUUAAACACUUUUGUCAU | 1.25 |

Set 4
Target: Ras GTPase-activating protein-binding protein 1, C-terminal RGG region (G3BP1, Homo sapiens, UniProt Q13283)
Chain of UniProt Q13283 (whole entry, looked up): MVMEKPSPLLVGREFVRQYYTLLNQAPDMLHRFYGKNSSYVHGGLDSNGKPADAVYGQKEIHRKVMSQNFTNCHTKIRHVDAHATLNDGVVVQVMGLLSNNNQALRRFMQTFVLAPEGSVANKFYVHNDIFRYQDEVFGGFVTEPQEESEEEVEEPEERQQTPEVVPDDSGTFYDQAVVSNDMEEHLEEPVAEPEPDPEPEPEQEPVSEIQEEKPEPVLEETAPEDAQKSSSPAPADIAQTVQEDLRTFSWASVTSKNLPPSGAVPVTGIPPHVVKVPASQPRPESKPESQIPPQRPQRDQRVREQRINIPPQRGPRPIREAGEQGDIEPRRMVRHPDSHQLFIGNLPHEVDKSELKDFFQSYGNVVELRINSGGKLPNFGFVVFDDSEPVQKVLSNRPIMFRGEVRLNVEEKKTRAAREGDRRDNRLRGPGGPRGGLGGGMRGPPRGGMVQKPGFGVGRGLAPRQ
Method: RNA Bind-n-Seq
Form: RNA
Sample: in vitro
Concentration: 1 µM
Setting: whole 134-nt RNA, ends assumed
Added: 150 mM KCl
Baseline: input library
Reading: higher = stronger binding
Shared flanks, not repeated: GGGAGUUCUACAGUCCGACGAUC … UGGAAUUCUCGGGUGUCAAGG
| Sequence | log2 enrichment |
| --- | --- |
| GUCCUGUGCUACACAUCGUAUGUACCGAAUCGGGAAAAAGGGUUUUUUUGGGUUUGGGAAAGUAUUAUGUUACGCCGUUCGGAUCUGCAC | -0.687 |
| AAGUCCUGUGCUACACAUCGUAUGUACCGAAUCGGGGUGGGGUUUUUGGGGUGGGGAAAGUAUUAUGUUACGCCGUUCGGAUCUGCACUU | 2.26 |
| UCCUCAAGUCCUGUGCUACACAUCGUAUGUACCGAAUCGGUGGGGUGGGUGGAAAGUAUUAUGUUACGCCGUUCGGAUCUGCACUUCCAG | 0.199 |
| UGGCCCUGGUGGCAUGCGGGGAGGAAGAGGUGGCCUCAUGGAUCGUGGUGGUCCCGGUGGAAUGUUCAGAGGUGGCCGUGGUGGAGUCAG | 3.6 |
| AGUCCUGUGCUACACAUCGUAUGUACCGAAUCGGGGUGGGGAGGGGUUUUUUUGGGGAAAGUAUUAUGUUACGCCGUUCGGAUCUGCACU | 2.06 |
| UCCUGUGCUACACAUCGUAUGUACCGAAUCGGGGCCCCCGGCCCCCGGGGCCCCCGGGGAAAGUAUUAUGUUACGCCGUUCGGAUCUGCA | -1.74 |
| UCAAGUCCUGUGCUACACAUCGUAUGUACCGAAUCGGGGAAGGGGAAGGAAGGGAAAGUAUUAUGUUACGCCGUUCGGAUCUGCACUUCC | -0.529 |
| CACAGCCAACACGCACCCACACAGACACAGAGGGAAGGGGUUGGGAUGGGGACAGGGUGCACAGCAGGGCGGGGUAGGACCCCAGCCCCU | -0.116 |
| UUCAGGAUGAAGAUGCAUCAGGGGGCGAUCAAGAUCAGGAAGAAAGAAGAUGGAACAAAAGGACUCAGCAGAUGCUUCAUGGUCUUCAGG | -1.88 |
| AGUUACGGUAGCAGUUCUCAGAGCAGCAGCUAUGGGCAGCCCCAGAGUGGGAGCUACAGCCAGCAGCCUAGCUAUGGUGGACAGCAGCAA | -1.96 |
| CUCAAGUCCUGUGCUACACAUCGUAUGUACCGAAUCGGAAAGGAAAGGGAAAGGAAAGUAUUAUGUUACGCCGUUCGGAUCUGCACUUCC | -1.47 |
| ACCAUGCAGGUGGGCAUCUUUGGGAAGUGGGGCAAGGGGGGGAUACGGAGGGGGGUAACACUUUGGGAACAGGUGGUCCCAGGUCGUUUC | 2.14 |
| CUGUGCUACACAUCGUAUGUACCGAAUCGGGGAAAAAAAGGGGUUUGGGGUUUUUUUGGGGAAAGUAUUAUGUUACGCCGUUCGGAUCUG | 1.02 |
| CUCAAGUCCUGUGCUACACAUCGUAUGUACCGAAUCGGGAGGGAGGGGAGGGGAAAGUAUUAUGUUACGCCGUUCGGAUCUGCACUUCCA | 3 |
